{"data": "Measurements pooled from the literature", "note": "Parts stem from different laboratories: compare values within a part only."}
{"data": "Set 1", "target": "Sal-like protein 4, full length isoform A (SALL4, Homo sapiens, UniProt Q9UJQ4, residues 1-1053)", "technique": "universal PBM", "molecule type": "double-stranded DNA, one strand shown", "sample": "in vitro", "concentration": "600 nM", "setting": "8-mer, flanks averaged, mean of replicates", "reading": "higher = stronger binding", "UniProt Q9UJQ4, sequence (whole entry, looked up)": "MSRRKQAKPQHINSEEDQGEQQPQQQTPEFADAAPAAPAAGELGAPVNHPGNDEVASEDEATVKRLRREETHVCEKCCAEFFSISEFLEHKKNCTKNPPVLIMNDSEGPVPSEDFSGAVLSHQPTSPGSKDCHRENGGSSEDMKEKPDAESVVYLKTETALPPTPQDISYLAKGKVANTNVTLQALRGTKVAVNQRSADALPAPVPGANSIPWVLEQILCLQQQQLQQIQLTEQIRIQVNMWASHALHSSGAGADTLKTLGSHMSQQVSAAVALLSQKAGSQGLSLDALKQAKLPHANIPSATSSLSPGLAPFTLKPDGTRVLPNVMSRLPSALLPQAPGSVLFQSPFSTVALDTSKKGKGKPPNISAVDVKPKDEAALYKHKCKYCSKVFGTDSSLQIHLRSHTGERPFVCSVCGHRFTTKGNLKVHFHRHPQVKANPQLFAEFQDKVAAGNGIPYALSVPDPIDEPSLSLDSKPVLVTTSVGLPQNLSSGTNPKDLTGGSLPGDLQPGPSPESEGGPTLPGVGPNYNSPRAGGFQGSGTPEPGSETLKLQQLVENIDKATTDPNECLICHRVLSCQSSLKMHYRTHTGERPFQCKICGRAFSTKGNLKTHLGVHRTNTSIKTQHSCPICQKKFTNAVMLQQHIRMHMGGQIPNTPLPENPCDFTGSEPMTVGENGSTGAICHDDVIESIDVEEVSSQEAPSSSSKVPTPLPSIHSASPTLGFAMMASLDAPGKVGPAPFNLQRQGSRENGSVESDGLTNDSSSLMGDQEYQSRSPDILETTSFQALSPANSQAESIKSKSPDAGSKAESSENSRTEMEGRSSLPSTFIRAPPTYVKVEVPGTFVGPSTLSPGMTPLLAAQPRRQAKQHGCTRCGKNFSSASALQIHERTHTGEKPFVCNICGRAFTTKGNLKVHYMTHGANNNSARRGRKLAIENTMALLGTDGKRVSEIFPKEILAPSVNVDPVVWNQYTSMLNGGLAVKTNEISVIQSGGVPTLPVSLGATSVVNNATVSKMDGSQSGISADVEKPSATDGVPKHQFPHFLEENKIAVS"}
{"Sequence": "CCAGGAGC", "E-score": -0.361}
{"Sequence": "ATTCTGTG", "E-score": 0.159}
{"Sequence": "GCCCGCGA", "E-score": -0.305}
{"Sequence": "CTAAACTC", "E-score": 0.0264}
{"Sequence": "CGGCCCGA", "E-score": -0.281}
{"data": "Set 2", "target": "Histone acetyltransferase KAT6A, both winged helices, GST fusion (KAT6A, Homo sapiens, UniProt Q92794, residues 1-181)", "technique": "protein binding microarray", "molecule type": "double-stranded DNA, one strand shown", "sample": "in vitro", "concentration": "not given", "setting": "8-mer, flanks averaged, mean of 2 arrays, mostly near background", "relative to": "not given", "reading": "higher = stronger binding", "Construct (chain)": "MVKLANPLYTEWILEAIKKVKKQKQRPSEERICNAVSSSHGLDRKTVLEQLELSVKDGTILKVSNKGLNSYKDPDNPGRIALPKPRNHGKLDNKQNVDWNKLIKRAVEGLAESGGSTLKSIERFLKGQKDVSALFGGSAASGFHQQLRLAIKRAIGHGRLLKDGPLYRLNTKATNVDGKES"}
{"Sequence": "CGTTCGCA", "E-score": 0.144}
{"Sequence": "CCGGGAAC", "E-score": 0.257}
{"Sequence": "CACTTAGG", "E-score": -0.189}
{"Sequence": "CCTGGAAC", "E-score": -0.188}
{"Sequence": "CGTCATAG", "E-score": 0.148}
{"data": "Set 3", "target": "Interferon regulatory factor 5, full length, phosphomimetic (IRF5, Homo sapiens, UniProt Q13568-2, residues 1-514, K96S/S451D/S453D/S456D/S462D)", "technique": "protein-binding microarray", "molecule type": "double-stranded DNA, one strand shown", "sample": "in vitro", "concentration": "250 nM", "setting": "60-bp whole probe", "together with": "salmon DNA 0.4 mg/ml", "relative to": "random background probes", "reading": "higher = stronger binding"}
{"Sequence": "GCCTAGCACTACGGTATCGACACTGGGGACGTGCTAGTCTTGATTCGCTTGACGCTGCTG", "log fluorescence [z-score]": 1.69}
{"Sequence": "GCCTAGCACTTTTTTATCAATCATTTTAGTGTGCTAGTCTTGATTCGCTTGACGCTGCTG", "log fluorescence [z-score]": 2.2}
{"Sequence": "GCCTAGCACCTATGAAGTCATGTCTTCAGGTGCTAGGTCTTGATTCGCTTGACGCTGCTG", "log fluorescence [z-score]": -0.169}
{"data": "Single results of other studies"}
{"Substance": "PhoQ, residues 284 288 289 292 302 303 AGGCYF", "target": "PhoP, residues 12 14 15 18 19 AGCRL (Escherichia coli, UniProt P23836)", "test": "Sort-seq, refers to: YFP reporter", "system": "E. coli", "setting": "PhoQ-PhoP variant library, together with: 10 µM Mg2+", "scale": "relative to: high Mg2+ state, higher = stronger signaling", "quantity": "fold induction", "result": 7.31}
{"note": "Some of these lines once more (set 2):"}
{"Sequence": "CCGGGAAC", "E-score": 0.257}
